Measurements gathered from unrelated publications.
Lines come from different studies, so protocols differ. ± gives the spread as reported.
Caspase-2: Caspase-2 (Homo sapiens, UniProt P42575)
Sequence of UniProt P42575 (whole entry, unmodified, looked up): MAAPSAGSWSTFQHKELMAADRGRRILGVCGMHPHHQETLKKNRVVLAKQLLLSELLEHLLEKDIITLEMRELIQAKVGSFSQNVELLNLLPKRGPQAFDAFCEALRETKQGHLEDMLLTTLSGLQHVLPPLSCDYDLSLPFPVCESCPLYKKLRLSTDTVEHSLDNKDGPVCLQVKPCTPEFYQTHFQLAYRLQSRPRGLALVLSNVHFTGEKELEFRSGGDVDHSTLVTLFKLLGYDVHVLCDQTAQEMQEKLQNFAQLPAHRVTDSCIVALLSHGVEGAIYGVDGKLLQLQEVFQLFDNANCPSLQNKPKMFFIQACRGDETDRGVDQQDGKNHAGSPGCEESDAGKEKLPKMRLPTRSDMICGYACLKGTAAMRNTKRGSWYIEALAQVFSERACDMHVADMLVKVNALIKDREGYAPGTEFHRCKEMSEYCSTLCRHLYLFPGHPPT
Sequence of UniProt P31389 (whole entry, looked up): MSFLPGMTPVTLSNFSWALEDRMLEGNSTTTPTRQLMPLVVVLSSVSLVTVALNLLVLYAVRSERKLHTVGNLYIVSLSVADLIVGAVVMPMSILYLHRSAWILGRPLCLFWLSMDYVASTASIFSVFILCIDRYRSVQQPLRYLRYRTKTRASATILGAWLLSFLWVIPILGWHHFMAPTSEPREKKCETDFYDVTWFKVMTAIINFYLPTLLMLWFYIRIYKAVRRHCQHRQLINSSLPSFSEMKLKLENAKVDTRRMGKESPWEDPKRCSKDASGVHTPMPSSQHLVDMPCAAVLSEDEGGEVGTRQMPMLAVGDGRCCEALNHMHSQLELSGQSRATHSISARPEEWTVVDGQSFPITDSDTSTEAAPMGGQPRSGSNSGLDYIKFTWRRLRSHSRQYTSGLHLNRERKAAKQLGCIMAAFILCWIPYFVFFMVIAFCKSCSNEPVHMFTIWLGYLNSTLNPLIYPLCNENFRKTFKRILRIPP
Sequence of UniProt P03146 (whole entry, looked up): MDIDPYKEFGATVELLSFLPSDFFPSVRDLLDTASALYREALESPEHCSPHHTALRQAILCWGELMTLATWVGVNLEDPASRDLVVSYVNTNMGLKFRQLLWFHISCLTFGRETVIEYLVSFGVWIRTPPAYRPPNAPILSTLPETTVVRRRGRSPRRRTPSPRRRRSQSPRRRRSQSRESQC
Sequence of UniProt Q8NB78 (whole entry, looked up): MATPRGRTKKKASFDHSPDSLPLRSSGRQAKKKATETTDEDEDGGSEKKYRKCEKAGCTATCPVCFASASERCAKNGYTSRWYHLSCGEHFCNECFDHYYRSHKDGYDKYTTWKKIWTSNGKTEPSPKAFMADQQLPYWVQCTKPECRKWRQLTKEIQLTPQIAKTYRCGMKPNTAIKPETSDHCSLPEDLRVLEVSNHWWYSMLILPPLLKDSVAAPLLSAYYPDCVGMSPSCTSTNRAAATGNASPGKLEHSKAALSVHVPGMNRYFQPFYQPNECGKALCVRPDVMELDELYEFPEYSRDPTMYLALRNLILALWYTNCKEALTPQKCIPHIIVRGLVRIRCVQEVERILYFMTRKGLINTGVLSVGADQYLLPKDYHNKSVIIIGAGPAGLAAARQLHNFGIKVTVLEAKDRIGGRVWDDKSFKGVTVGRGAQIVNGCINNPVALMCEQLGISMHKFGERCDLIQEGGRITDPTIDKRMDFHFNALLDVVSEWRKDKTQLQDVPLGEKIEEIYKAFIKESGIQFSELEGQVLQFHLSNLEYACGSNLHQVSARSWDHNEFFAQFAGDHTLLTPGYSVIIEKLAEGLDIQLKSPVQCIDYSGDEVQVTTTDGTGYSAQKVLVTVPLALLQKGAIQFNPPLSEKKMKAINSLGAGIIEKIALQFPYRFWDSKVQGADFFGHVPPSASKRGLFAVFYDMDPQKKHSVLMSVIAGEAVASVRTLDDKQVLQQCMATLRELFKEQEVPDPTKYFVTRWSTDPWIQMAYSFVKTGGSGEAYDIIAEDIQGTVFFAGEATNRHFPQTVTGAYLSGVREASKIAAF
Sequence of UniProt P01024 (whole entry, looked up): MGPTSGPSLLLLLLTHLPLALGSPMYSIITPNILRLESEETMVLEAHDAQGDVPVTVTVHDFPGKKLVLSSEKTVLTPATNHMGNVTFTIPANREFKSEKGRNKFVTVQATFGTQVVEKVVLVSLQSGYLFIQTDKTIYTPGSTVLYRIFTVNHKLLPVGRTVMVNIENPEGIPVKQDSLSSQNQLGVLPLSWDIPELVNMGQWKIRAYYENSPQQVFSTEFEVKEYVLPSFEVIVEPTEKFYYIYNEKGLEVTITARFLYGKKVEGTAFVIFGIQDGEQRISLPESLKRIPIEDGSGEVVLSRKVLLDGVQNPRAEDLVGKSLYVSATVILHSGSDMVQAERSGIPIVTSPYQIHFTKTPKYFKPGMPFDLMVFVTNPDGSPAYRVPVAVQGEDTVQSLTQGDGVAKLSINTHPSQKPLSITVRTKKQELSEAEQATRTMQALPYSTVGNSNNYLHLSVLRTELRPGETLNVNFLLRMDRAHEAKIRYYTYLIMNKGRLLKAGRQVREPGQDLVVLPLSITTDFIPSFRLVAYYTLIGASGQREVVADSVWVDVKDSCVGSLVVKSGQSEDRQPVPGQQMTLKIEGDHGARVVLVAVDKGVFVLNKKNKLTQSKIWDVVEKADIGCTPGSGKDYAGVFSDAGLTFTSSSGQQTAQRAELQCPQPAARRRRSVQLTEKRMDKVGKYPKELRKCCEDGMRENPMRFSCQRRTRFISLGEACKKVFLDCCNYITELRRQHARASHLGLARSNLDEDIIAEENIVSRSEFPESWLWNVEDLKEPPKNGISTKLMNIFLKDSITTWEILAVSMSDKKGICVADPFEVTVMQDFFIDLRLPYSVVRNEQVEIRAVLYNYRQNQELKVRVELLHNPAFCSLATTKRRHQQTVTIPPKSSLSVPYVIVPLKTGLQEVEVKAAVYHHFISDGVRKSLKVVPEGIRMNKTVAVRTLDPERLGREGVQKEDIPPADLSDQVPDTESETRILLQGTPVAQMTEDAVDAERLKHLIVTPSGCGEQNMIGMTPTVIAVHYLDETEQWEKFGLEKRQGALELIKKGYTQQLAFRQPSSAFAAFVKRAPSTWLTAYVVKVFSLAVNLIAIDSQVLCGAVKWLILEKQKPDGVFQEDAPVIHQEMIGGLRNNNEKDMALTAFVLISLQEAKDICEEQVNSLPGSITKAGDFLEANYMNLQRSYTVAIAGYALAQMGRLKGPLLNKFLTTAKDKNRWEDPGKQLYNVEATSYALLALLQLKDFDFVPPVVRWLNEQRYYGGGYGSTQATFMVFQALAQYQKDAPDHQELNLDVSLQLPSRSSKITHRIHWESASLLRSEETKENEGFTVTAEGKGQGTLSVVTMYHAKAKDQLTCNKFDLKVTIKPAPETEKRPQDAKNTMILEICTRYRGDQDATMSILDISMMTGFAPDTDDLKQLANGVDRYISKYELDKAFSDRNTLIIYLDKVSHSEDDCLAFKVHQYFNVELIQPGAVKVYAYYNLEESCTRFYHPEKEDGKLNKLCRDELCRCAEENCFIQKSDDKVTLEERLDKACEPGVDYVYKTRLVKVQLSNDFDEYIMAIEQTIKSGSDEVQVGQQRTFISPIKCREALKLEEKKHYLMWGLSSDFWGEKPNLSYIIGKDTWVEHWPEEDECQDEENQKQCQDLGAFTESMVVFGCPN
Sequence of UniProt Q13258 (whole entry, looked up): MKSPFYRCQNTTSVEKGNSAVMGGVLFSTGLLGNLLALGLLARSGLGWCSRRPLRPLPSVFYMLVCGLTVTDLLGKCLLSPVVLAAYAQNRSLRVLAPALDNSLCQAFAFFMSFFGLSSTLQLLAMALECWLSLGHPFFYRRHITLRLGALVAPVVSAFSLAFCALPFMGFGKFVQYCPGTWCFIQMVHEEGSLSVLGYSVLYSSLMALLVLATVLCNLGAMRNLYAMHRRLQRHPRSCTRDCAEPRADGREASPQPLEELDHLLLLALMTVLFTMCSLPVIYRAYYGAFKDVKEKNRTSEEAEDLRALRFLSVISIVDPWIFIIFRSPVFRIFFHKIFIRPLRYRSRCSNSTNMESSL
Sequence of UniProt Q9NXA8 (whole entry, unmodified, looked up): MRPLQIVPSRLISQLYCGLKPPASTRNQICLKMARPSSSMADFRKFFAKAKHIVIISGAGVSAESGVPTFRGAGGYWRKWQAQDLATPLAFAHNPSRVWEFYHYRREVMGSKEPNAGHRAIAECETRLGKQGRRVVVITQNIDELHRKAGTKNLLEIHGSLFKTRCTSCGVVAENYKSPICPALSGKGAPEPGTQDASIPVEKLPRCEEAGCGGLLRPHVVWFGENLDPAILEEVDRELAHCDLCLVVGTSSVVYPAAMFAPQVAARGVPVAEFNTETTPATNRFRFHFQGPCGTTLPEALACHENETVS
Sequence of UniProt P63104 (whole entry, looked up): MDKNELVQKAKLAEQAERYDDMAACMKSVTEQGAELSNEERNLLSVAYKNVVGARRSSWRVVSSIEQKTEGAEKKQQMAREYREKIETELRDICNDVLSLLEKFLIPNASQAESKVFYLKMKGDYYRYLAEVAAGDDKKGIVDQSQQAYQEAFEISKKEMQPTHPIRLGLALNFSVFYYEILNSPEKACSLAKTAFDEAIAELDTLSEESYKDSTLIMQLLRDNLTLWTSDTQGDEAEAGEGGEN

SMILES	tested on	test	system	conditions	endpoint	value
CC(=O)N[C@@H](CCCNC(=N)N)C(=O)N[C@@H](C)C(=O)N[C@H](C=O)CC(=O)O	Caspase-2	enzyme activity, inhibitor, fluorescence	–	pH 6.5	Ki	> 100 µM
O=C(O)/C=C/c1cccc(NC(=O)c2cc(-c3cccc(F)c3)ccc2F)c1	Prostaglandin D2 receptor (PTGDR, Homo sapiens, UniProt Q13258)	calcium signal, agonist, fluorescence	–	–	EC50	> 10 µM
COc1ccc(CCCN[C@@H]2CCC[C@H]2CN[C@@H]2CCC[C@H]2CNCCCCN[C@H]2CCC[C@@H]2CN)cc1	Lysine-specific histone demethylase 2 (KDM1B, Homo sapiens, UniProt Q8NB78)	enzyme activity, inhibitor	–	–	Ki	6.9 µM
CCOC(=O)C1=CN([C@@H]2O[C@H](CO)[C@@H](O)[C@H]2O)C=CC1	NAD-dependent protein deacylase sirtuin-5, mitochondrial (SIRT5, Homo sapiens, UniProt Q9NXA8, W222A)	binding, MST	–	–	Kd	1.2 µM
CC1=C(O)C(=O)C=C2C1=CC=C1[C@@]2(C)CC[C@@]2(C)[C@@H]3C[C@](C)(C(=O)NCCOCCOCCOCCOCC(=O)N[C@H](C(=O)N4C[C@H](O)C[C@H]4C(=O)N[C@@H](C)c4ccc(-c5scnc5C)cc4)C(C)(C)C)CC[C@]3(C)CC[C@]12C	Nuclear receptor subfamily 4 group A member 1 (NR4A1, Homo sapiens, UniProt P22736)	protein level, degrader, western blot	–	–	DC50	0.519 µM
CC(=O)N[C@@H](Cc1c[nH]c2ccccc12)C(=O)N[C@@H](CC(=O)O)C(=O)N[C@@H](CCCNC(=N)N)C(=O)N[C@@H](C)C(=O)N[C@H](C=O)CC(=O)O	Caspase-2	enzyme activity, inhibitor, fluorescence	–	pH 6.5	Ki	0.0457 µM
COc1cc(CNC(=O)C[C@H](C)CCC=C(C)C)ccc1O	T47D breast cancer cells	SRB	–	10 µM, 48 h	growth percent	89%
CC[C@H](C)[C@H](NC(C)=O)C(=O)N[C@H]1CSSC[C@@H](C(=O)N[C@@H](Cc2c[nH]c3ccccc23)C(N)=O)NC(=O)[C@H](CCCNC(=N)N)NC(=O)[C@H](Cc2c[nH]cn2)NC(=O)[C@H](C)NC(=O)CNC(=O)[C@H](Cc2c[nH]c3ccccc23)NC(=O)[C@H](CC(=O)O)NC(=O)[C@H](CCC(N)=O)NC(=O)[C@H](Cc2c[nH]c3ccccc23)NC(=O)[C@H](C(C)C)NC1=O	Complement C3 (Homo sapiens, UniProt P01024)	surface plasmon resonance	–	25 °C, 1:1 binding model	Kd	0.7 µM
[64Cu+2].c1cnc(CNCc2ccc(CN3CCCN4CCNCCCN(CC4)CC3)cc2)nc1	CXCR4	–	NOD/SCID mouse, U87 and U87-stb-CXCR4 xenografts, stomach	iv, 90 min, no blocking dose, ex vivo	tissue uptake	1.04 ± 0.12 %ID/g
O=C(CC12CC3CC(CC(C3)C1)C2)NCCOCC(=O)NC1CCN(S(=O)(=O)c2cc(C(=O)Nc3cc(F)c(F)c(F)c3)ccc2F)CC1	Capsid protein (C, Hepatitis B virus genotype D subtype ayw, UniProt P03146)	degrader, Western blot, refers to: HBV core protein	HepAD38, Hepatitis B virus	24 h	DC50	3.02 ± 0.54 µM
COc1cc(CNC(=O)C[C@H](C)CCC=C(C)C)ccc1OCc1cn(-c2ccccc2Cl)nn1	ACHN	SRB	–	10 µM, 48 h	growth percent	67.6%
NS(=O)(=O)Nc1ncnc(OCCOc2ncc(Br)cn2)c1-c1ccc(Br)cc1	–	M6 formation	male Beagle dog, liver microsomes	500 mg/kg daily for 4 weeks	Km	5.3 ± 1 µM
CC(=O)N[C@@H](CC(=O)O)C(=O)N[C@@H](CCCNC(=N)N)C(=O)N[C@H](C(=O)N[C@H](C=O)CC(=O)O)[C@@H](C)O	Caspase-2, circularly permuted (Homo sapiens, UniProt P42575)	enzyme activity, inhibitor	–	pH 6.5, 37 °C, together with: Z-VDVAD-AFC	Ki	3.24 µM
Cc1nc(N)sc1CCCNC(=N)NCCCCCCCCNC(=N)NCCCc1sc(N)nc1C	Histamine H1 receptor (HRH1, Cavia porcellus, UniProt P31389)	tissue contraction, antagonist	–	–	Kb	1.32 µM
O=C(c1cc2c(s1)CCCCC2)N1CCC(n2c(=O)[nH]c3ccccc32)CC1	Short transient receptor potential channel 6 (TRPC6, Homo sapiens, UniProt Q9Y210, E672C)	channel activation, agonist, whole-cell patch clamp	–	–	EC50	4.47 ± 0.37 µM
CC(=O)N[C@H](C(=O)NCC(=O)N[C@@H](CCCCN)C(=O)N[C@H](C=O)CC(=O)O)[C@@H](C)O	Caspase-2	enzyme activity, inhibitor, fluorescence	–	pH 6.5	Ki	11 µM
CC(C)=CCC[C@](C)(O)[C@H]1CC[C@]2(C)[C@@H]1[C@H](O)C[C@@H]1[C@@]3(C)CC[C@H](O)C(C)(C)[C@@H]3CC[C@]12C	14-3-3 protein zeta/delta (YWHAZ, Homo sapiens, UniProt P63104)	isothermal titration calorimetry	–	–	Kd	3.1 ± 2e-07 µM

Some of these lines once more:
SMILES	tested on	test	system	conditions	endpoint	value
COc1cc(CNC(=O)C[C@H](C)CCC=C(C)C)ccc1O	T47D breast cancer cells	SRB	–	10 µM, 48 h	growth percent	89%
CC(=O)N[C@H](C(=O)NCC(=O)N[C@@H](CCCCN)C(=O)N[C@H](C=O)CC(=O)O)[C@@H](C)O	Caspase-2	enzyme activity, inhibitor, fluorescence	–	pH 6.5	Ki	11 µM
